# Results of several laboratories.
# A part holds a random share of what one study measured. Changes are numbered by the printed parent chain.
# Sequence of UniProt P50750 (whole entry, looked up): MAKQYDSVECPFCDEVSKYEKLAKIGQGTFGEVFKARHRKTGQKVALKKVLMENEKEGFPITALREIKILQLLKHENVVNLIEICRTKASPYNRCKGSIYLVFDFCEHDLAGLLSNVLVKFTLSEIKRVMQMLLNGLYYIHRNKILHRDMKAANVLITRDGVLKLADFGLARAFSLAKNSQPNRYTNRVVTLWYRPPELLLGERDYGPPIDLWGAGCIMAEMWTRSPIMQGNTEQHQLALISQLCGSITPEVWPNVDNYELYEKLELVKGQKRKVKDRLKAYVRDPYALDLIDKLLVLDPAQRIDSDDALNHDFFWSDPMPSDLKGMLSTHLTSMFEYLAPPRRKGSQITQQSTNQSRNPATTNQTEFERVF

# Block 1
# Target: UDP-N-acetylglucosamine--peptide N-acetylglucosaminyltransferase 110 kDa subunit (OGT, Homo sapiens, UniProt O15294)
# Read-out: binding
# Technique: phage display NGS
# Molecule type: peptide
# Tested at: concentration not given
# Setting: normalized abundance
# Baseline: input library
# Residues (O15294 1-1046): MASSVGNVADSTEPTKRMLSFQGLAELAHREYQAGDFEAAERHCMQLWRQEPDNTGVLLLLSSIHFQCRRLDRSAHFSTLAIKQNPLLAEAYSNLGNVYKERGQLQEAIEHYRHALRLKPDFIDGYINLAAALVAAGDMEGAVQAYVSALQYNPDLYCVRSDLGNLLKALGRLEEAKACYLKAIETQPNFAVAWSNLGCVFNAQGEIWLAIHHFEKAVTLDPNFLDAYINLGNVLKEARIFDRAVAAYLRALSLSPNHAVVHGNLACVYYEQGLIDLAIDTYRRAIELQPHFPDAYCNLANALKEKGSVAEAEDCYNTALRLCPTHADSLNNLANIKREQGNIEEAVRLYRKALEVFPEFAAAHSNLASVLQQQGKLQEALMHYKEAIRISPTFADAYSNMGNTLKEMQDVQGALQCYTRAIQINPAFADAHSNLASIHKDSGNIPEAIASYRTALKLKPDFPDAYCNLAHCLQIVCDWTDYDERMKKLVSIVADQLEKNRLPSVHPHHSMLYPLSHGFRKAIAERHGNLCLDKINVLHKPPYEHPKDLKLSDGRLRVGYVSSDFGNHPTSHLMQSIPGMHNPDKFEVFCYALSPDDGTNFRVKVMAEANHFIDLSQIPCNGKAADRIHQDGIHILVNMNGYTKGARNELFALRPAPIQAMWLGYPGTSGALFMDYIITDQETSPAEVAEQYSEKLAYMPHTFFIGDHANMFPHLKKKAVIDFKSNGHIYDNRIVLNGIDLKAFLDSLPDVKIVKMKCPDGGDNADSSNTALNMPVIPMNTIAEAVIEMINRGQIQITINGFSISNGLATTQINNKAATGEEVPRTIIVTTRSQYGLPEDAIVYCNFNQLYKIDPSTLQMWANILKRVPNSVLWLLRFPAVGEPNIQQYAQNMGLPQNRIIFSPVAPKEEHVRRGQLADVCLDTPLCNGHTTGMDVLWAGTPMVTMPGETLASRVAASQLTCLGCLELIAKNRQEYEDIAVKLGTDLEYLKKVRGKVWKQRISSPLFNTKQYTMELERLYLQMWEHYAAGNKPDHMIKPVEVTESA
Sequence,enrichment fold change
YLIEPPKRHHHYHN,9.45
NYYGQHHHVLQHGDE,6.11
QHPLHHDMHHMRVMD,5.46
FLPQYKIEVPFSVYK,6.28
TWQWNAHHHHGMSGV,12.8

# Block 2
# Target: tungstate, free oxyanion
# Technique: microfluidic competitive inhibition
# Sample: in vitro, cell-free expressed
# Tested at: not given
# Setting: derived from inhibition constants, unchanged parent 2230 nM
# Direction: lower = stronger binding
# Starting sequence: PafA, mature enzyme, eGFP fusion (Elizabethkingia meningoseptica, UniProt Q9KJX5); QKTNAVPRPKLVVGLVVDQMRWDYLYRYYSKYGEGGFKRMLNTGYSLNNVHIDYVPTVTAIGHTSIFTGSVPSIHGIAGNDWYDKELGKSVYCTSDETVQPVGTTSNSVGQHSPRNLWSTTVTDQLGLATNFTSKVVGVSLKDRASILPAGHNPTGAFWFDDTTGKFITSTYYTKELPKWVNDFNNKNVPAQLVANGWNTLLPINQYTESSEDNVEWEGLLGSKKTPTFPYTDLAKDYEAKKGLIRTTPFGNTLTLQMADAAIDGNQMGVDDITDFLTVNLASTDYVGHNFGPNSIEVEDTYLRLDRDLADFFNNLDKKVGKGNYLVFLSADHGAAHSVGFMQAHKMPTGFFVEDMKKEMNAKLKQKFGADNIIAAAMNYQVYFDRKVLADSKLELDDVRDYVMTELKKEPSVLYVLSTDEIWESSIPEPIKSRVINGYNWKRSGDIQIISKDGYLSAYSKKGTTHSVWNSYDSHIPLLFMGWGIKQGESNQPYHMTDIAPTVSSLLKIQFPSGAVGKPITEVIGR
Variant,oxyanion analog dissociation constant
D311G,2.05 µM
S223G,1.96 µM
Q206G,1.75 µM
S108V,3.51 µM
I476V,2.27 µM
K387V,2.43 µM
P72G,1.23 µM
I485G,1.4 µM

# Block 3
# Target: CCNF, cyclin fold, Cln2 fusion (human)
# Technique: yeast growth competition, sequencing
# Sample: yeast
# Setting: strong parent motif
# Baseline: not given
# Direction: higher = stronger binding
# Starting sequence: viral docking peptide; KGVKRKLFAEDSS
Variant,normalised enrichment score
KGVWRKLFAEDSS [K4W],5.94
KGVKPKLFAEDSS [R5P],0.384
KGVRRKLFAEDSS [K4R],8.92
KGVKRKLFALDSS [E10L],7.71
KGVKRKIFAEDSS [L7I],4.8
KGVKRKLFAEMSS [D11M],8.02
KGHKRKLFAEDSS [V3H],2.46
KGVKRKLFAEPSS [D11P],8.14

# Further values, each from its own experiment
SMILES,target,test,conditions,scale,measurement,result
CCn1cnc2c(Nc3cccc(Cl)c3)nc(N[C@H]3CCCC[C@H]3N)nc21,"Cyclin-dependent kinase 9, with cyclin K (CDK9, Homo sapiens, UniProt P50750)","enzyme activity, inhibitor",0.5 µM,baseline: control,remaining activity,46.9%

# For quick reference, copied from above (further values, each from its own experiment):
SMILES,target,test,conditions,scale,measurement,result
CCn1cnc2c(Nc3cccc(Cl)c3)nc(N[C@H]3CCCC[C@H]3N)nc21,"Cyclin-dependent kinase 9, with cyclin K (CDK9, Homo sapiens, UniProt P50750)","enzyme activity, inhibitor",0.5 µM,baseline: control,remaining activity,46.9%
